Experimental data of several laboratories.
Every numbered part comes from another study and shows a few of its results, in no order. Substitutions count along the parent as printed.

Sample 1
Target: ABI1, truncated, D143A, DHFR fusion (Arabidopsis thaliana, UniProt P49597)
Technique: DHFR PCA, dose-response
Matrix: yeast
Notes: Hill fit, mean, not affinity
With: (+)-ABA, dose series
Reading: lower = more sensitive
Starting sequence: PYL1, truncated, DHFR fusion (Arabidopsis thaliana, UniProt Q8VZS8); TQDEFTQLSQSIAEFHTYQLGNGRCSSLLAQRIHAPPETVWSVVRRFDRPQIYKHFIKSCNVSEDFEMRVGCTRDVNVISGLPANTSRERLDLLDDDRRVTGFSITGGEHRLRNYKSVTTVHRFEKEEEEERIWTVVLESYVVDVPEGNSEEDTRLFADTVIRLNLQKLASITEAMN
Change	ABA EC50 [µM]
E152A	1.86
D97W	23.1
V44R	200
D95S	36.2
G23N	3.26
N149D	130
Q10I	12.3
T39Y	5.44
G107L	400
G108V	619
S80G	137
E131Q	4.48
T154G	570
G21M	2.66
E151F	3.39

Sample 2
Target: RNA binding protein fox-1 homolog 2, RRM domain, GST-SBP tag (RBFOX2, Homo sapiens, UniProt O43251-10, residues 100-194)
Technique: RNA Bind-n-Seq
Form: RNA
Matrix: in vitro
Concentration: 365 nM
Notes: natural RNA segment, single round, ends assumed
Baseline: no-protein control
Reading: higher = stronger binding
Shared flanks, not repeated: GGGAGUUCUACAGUCCGACGAUC … UGGAAUUCUCGGGUGCCAA
Target sequence (chain): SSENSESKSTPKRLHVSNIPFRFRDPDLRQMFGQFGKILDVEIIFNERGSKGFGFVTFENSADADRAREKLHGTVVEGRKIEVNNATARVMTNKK
Oligonucleotide	RBNS enrichment (R)
CCAGUGUUUUUAAGAGAAUGUUUCUUAAAACCAAUAGGAAACUUAAGCGAGGUUUCAUGACACAACCUUUCAUGUCGUGAAAGGCAGAGGGUGACUGUGUGUGAUGUGCA	5.92
UCCCUGAAAGUUGGCCCUUGGUGUCUAGUGGAGAAAAGUAGGCAUCUCCCAUCUGCUCACAGUAGCACCUCAGACUCCUAUGUCCCAAUGGCAGCAACAAUUUUGCCAUU	0.435
UGUGUUCUGUUGUAAAUCAUUUGGCGAGACUGUAUUUUAGUAACUGCUGCCUAACUUCCCUGUGUUCUAUUUGAGAGGCGCCUGUCUGGAUAAAGUUGUCUUGAAAUUUC	12.7
CUCCUCUCCAGGGAGUAACAUCAGCUCAGAGUUUACUGAAGAAUUCAUCUUCACCUGAUAAAGAUGGUUGCUGGUUUGGAAUCUACACCUGCACACUUUUACUUCUUCCG	0.28
UAAAAAUUGAAAGCUUCCAGAGAGCUGCCCUGGUCUCCCUUCCUCUCCUGUAAGAGUAUUAAUGUUGGGGCCCAAGGGCUCGAGGAAGGCAGCCUCGCUCACAGCCAGGC	0.159
CAGGUUAGAAGAACCUGACAUCCACUGUUUGCCUUGGAUAGUAUGGCUUGUUUUUGGAAAGAAAUUCUGAAGAGAGUGGAGGAGAGGAGAAAUGUCCUCAUAUUUGAGGA	0.738
AAAUCGUGUUCCAAGAGCACUUUGUAACUCACUGAGGGGGAGGGGAAGCACCUUUUGGGUUUGCGAUACCAAUCAACAUAAGGUGUUGUUGACUCGGGUACAAUAAAACU	0.583
GAGCCUGCUUCUGGGCCACCCCUCCUGGUUCAGGGCUGUGCUCACAGCAGAUUCUUGCAGUAUCAAGUAUACGCCUGUGGCAGAAUAAGUAUCUGUAAAUACAUGUUUAA	0.417
AUCCAUGUGUUGAUUUCCUGUUUCCUCCUCCCCCGCCUCUUCCAGUUCAAAGGAGUCUGCAAUUGGAACUGCUGAUUUUCGGUGGGUUUUGUAGUUGAUUUUUCCAAGAG	0.233
AGUGAGUGAAGUUGAAAUAAAAUCUUUAAAAUUUACUAUAUUGCCAGUGGUUUCACAACAGUUCUCUUGUAUUUAUUUAUCAAUUAAAUCAAAUAAAAAUGAUUAUGUCA	0.841
GACUGUGGUAACUAGCUGUGACCAAGAAGAGAAAAUGUUGUGUCUUGGGAAAUGAACUUGGAUCUCUCCAUAAUGGUUUCAACAUUCAAACUUUACUACUUAAGUCAAUA	0.64
CCCCUUCUCACCUCCUCAUUCUCUCUGGCUCUUUCUGUCUUCCUCUUCUCACCCUCCUCCCUCCCCUUAGCCAUCACUUCUGGGAAGUAAAGAACUUGACUUAGUGCCGG	0.703

Sample 3
Target: Phosphate system positive regulatory protein PHO4, full length, GST-tagged (PHO4, Saccharomyces cerevisiae, UniProt P07270, residues 1-312)
Technique: competition protein-binding microarray
Form: double-stranded DNA, one strand shown
Matrix: in vitro
Concentration: 2 µM
Notes: whole 60-bp probe, lowest competitor level
With: Cbf1 competitor, 0.05 µM
Reading: higher = stronger binding
Shared flanks, not repeated: … GTCTTGATTCGCTTGACGCTGCTG
Target sequence (chain): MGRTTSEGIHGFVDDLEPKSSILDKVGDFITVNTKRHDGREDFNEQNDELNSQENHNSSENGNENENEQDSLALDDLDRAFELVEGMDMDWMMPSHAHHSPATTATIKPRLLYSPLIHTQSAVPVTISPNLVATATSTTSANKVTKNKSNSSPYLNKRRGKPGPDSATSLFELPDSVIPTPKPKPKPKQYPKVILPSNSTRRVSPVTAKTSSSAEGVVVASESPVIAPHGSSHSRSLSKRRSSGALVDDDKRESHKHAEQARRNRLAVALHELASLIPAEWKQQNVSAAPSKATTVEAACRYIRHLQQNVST
Oligonucleotide	fluorescence intensity [a.u.]
CAGAAGGACTATTCACACGTGCCAGGCAAATTTTTT	16900
CTTTCCCGATCTTGTCACTGGACTTTAGCACATTTG	3660
CTAACGAAGGTTTGGCTTGTGGGTGACAAGCCAAGT	3920
GTCTTGTCTCATTGTCACGCCACTTTCCCCACTTCA	5490
ATACTGAAGATTCGAAACGTGTTTCTAAAACCAATA	13900
GTCTTGTCTCATTGCGACGTGGGTGTCCCCACTTCA	6980
CGTCCTAGTGATTTTCACGTGCGGTCCATGAGGAAG	13800
GCACCGTAATCCATTAATGTGTCGCAGGCTTTCACC	3660
TGCGCAACAACTTGTCACTCTACTTTATGTCTAGAA	3380
TGTTTAGAGAGTCTTGCCTTCAGGTTTAATATAGTC	3000
AACTTTCTAGTCGACCACGTGAGTCCGCCCAGTCTT	17800
ATTCATTCAAGCTAGCAAACTTAGATCTCAAAAAAT	3560
AGTAATTGTACGATGCACGTGCAAAAAAAGTGCTCA	16100
TTACCCAGCGATCCGCCCGTGAGGTGATGCGCAAAA	4870
CGTAAGAAAGGCCATCACGTGTGGAGGGGAGAGCTC	11900
GTCCGTAACAATTTGCACGATGCTGGCTTCTATGCC	9680
CGGGGTTAAGTTTGTCACCTTACTTGCTTGCAGCAG	3240
CGACAAGCCGCTATTAGCGTGGGTACTGACATCAGG	5070
CTAACGAAGGTTTTTCACGTGCACTACAAGCCAAGT	12500
CTTCTGTAAATTTGGACTGTGGGTGGACGCGCCCCG	4580
GCTCCGTTATGTTCACTCGTGTTTCTGATACTGGAT	8480

Sample 4
Target: Interferon regulatory factor 7, full length, phosphomimetic (IRF7, Homo sapiens, UniProt Q92985, residues 1-503, S101K/S471D/S472D/S475D/S476D/S477D/S483D/S484D/S487D)
Technique: protein-binding microarray
Form: double-stranded DNA, one strand shown
Matrix: in vitro
Concentration: 250 nM
Notes: 60-bp whole probe
With: salmon DNA 0.4 mg/ml
Baseline: random background probes
Reading: higher = stronger binding
Shared flanks, not repeated: GCCTAGCAC … GTCTTGATTCGCTTGACGCTGCTG
Target sequence (chain): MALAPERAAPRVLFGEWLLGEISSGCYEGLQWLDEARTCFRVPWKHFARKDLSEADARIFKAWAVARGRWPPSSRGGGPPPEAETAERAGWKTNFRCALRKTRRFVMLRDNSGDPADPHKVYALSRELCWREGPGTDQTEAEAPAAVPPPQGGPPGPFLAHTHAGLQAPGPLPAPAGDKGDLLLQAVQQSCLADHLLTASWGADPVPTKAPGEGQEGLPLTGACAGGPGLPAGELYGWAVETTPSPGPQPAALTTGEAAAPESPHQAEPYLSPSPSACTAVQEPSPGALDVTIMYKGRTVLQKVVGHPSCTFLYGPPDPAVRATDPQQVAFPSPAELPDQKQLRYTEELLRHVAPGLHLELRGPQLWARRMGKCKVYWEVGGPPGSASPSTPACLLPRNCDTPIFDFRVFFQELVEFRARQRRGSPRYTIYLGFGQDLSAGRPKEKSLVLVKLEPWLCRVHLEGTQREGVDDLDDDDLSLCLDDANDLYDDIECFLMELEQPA
Oligonucleotide	log fluorescence
GACTGACTGCTTTTCCTGACGTGCTAG	0.058 z-score
TTACAACTGAGTATCGATTAGTGCTAG	0.646 z-score
TTAGGTATCCTTCTCATTTAGTGCTAG	0.275 z-score
GACGGTCTCCTTATCCGGACGTGCTAG	0.451 z-score
TACGGTCTCCTTCTCCTGACGTGCTAG	0.417 z-score
GACCGTATCCTACTGCTGACGTGCTAG	0.601 z-score
TTAGAACTGGGGCTTCGATTAGTGCTA	-0.15 z-score
GACGGTTTCCTTCTCCGGACGTGCTAG	2.83 z-score
TTAGGTCTCCTGTTCCTTTAGTGCTAG	0.24 z-score
AACATACTGATTTCCACTTTGTGCTAG	1.23 z-score
TTAGATTTCAGTAACGATTAGTGCTAG	0.503 z-score
GACGGTTCCGGTTTCGCGACGTGCTAG	6.28 z-score
TTAGGCCTGGGTATCGGTTAGTGCTAG	1.06 z-score
CTATGAAGTCATGTCTTCAGGTGCTAG	0.0352 z-score
TTAGAACTGGGGTTTCGATTTGTGCTA	10.5 z-score
GAAATTTTTTTTCTAACTAAGTGCTAG	0.478 z-score

Sample 5
Target: CCNF, cyclin fold, Cln2 fusion (human)
Technique: yeast growth competition, sequencing
Matrix: yeast
Notes: strong parent motif
Baseline: not given
Reading: higher = stronger binding
Starting sequence: RB1 docking peptide (human); PKPLKKLRFDIEG
Change	normalised enrichment score
PKKLKKLRFDIEG [P3K]	0.897
PWPLKKLRFDIEG [K2W]	1.92
PKPTKKLRFDIEG [L4T]	0.932
PKPLKKLRFDISG [E12S]	0.836
PKPLKKQRFDIEG [L7Q]	-0.00433
PKPLKKIRFDIEG [L7I]	1.13
PKPLKKLRFDIAG [E12A]	0.891
PKPLKKTRFDIEG [L7T]	1.02
PKPLKKLEFDIEG [R8E]	2.35
PKPLKYLRFDIEG [K6Y]	-0.0291
PKPLKKLRFDIEF [G13F]	1.39
PKPLKVLRFDIEG [K6V]	1.37
PKPLKKLRFDIMG [E12M]	1.37
PKPLKKLRFDIET [G13T]	0.389
PLPLKKLRFDIEG [K2L]	1.85

Excerpt of the above (sample 2):
Oligonucleotide	RBNS enrichment (R)
CCAGUGUUUUUAAGAGAAUGUUUCUUAAAACCAAUAGGAAACUUAAGCGAGGUUUCAUGACACAACCUUUCAUGUCGUGAAAGGCAGAGGGUGACUGUGUGUGAUGUGCA	5.92
UCCCUGAAAGUUGGCCCUUGGUGUCUAGUGGAGAAAAGUAGGCAUCUCCCAUCUGCUCACAGUAGCACCUCAGACUCCUAUGUCCCAAUGGCAGCAACAAUUUUGCCAUU	0.435
UGUGUUCUGUUGUAAAUCAUUUGGCGAGACUGUAUUUUAGUAACUGCUGCCUAACUUCCCUGUGUUCUAUUUGAGAGGCGCCUGUCUGGAUAAAGUUGUCUUGAAAUUUC	12.7
CUCCUCUCCAGGGAGUAACAUCAGCUCAGAGUUUACUGAAGAAUUCAUCUUCACCUGAUAAAGAUGGUUGCUGGUUUGGAAUCUACACCUGCACACUUUUACUUCUUCCG	0.28
UAAAAAUUGAAAGCUUCCAGAGAGCUGCCCUGGUCUCCCUUCCUCUCCUGUAAGAGUAUUAAUGUUGGGGCCCAAGGGCUCGAGGAAGGCAGCCUCGCUCACAGCCAGGC	0.159
CAGGUUAGAAGAACCUGACAUCCACUGUUUGCCUUGGAUAGUAUGGCUUGUUUUUGGAAAGAAAUUCUGAAGAGAGUGGAGGAGAGGAGAAAUGUCCUCAUAUUUGAGGA	0.738
AAAUCGUGUUCCAAGAGCACUUUGUAACUCACUGAGGGGGAGGGGAAGCACCUUUUGGGUUUGCGAUACCAAUCAACAUAAGGUGUUGUUGACUCGGGUACAAUAAAACU	0.583
GAGCCUGCUUCUGGGCCACCCCUCCUGGUUCAGGGCUGUGCUCACAGCAGAUUCUUGCAGUAUCAAGUAUACGCCUGUGGCAGAAUAAGUAUCUGUAAAUACAUGUUUAA	0.417
AUCCAUGUGUUGAUUUCCUGUUUCCUCCUCCCCCGCCUCUUCCAGUUCAAAGGAGUCUGCAAUUGGAACUGCUGAUUUUCGGUGGGUUUUGUAGUUGAUUUUUCCAAGAG	0.233
AGUGAGUGAAGUUGAAAUAAAAUCUUUAAAAUUUACUAUAUUGCCAGUGGUUUCACAACAGUUCUCUUGUAUUUAUUUAUCAAUUAAAUCAAAUAAAAAUGAUUAUGUCA	0.841
GACUGUGGUAACUAGCUGUGACCAAGAAGAGAAAAUGUUGUGUCUUGGGAAAUGAACUUGGAUCUCUCCAUAAUGGUUUCAACAUUCAAACUUUACUACUUAAGUCAAUA	0.64
CCCCUUCUCACCUCCUCAUUCUCUCUGGCUCUUUCUGUCUUCCUCUUCUCACCCUCCUCCCUCCCCUUAGCCAUCACUUCUGGGAAGUAAAGAACUUGACUUAGUGCCGG	0.703
